Results from different studies.
Numbered parts are unrelated; each lists some results of a single study. Substitutions count along the parent as printed.

Sample 1
Target: ABI1, truncated, D143A, DHFR fusion (Arabidopsis thaliana)
Technique: DHFR PCA, deep sequencing
Sample: yeast
Notes: methotrexate growth selection, single substitutions
Together with: (+)-ABA 0.0091 µM
Relative to: wild-type fitted maximum
Reading: higher = stronger binding
Quantity: relative binding score
Starting sequence: PYL1, truncated, DHFR fusion (Arabidopsis thaliana); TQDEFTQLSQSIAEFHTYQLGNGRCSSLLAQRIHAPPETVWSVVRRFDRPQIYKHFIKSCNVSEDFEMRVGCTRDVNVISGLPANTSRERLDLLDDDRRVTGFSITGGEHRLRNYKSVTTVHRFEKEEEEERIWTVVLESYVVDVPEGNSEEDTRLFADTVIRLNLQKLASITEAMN
M68R: -1.9%
P36E: 14.7%
R163C: 2.35%
R99T: 1.54%
S27Q: -0.245%
N177C: 52.5%
L8G: -4.07%

Sample 2
Target: CCNB1, cyclin fold, Cln2 fusion (human)
Technique: yeast growth competition, sequencing
Sample: yeast
Notes: strong parent motif
Relative to: not given
Reading: higher = stronger binding
Quantity: normalised enrichment score
Starting sequence: E2F1 docking peptide (human); PPVKRRLDFETDH
PPVKRRTDFETDH [L7T]: 0.058
PPVKRRWDFETDH [L7W]: 0.441
PPNKRRLDFETDH [V3N]: 0.0229
PPQKRRLDFETDH [V3Q]: 0.417
PPVKRNLDFETDH [R6N]: 1.39
PPPKRRLDFETDH [V3P]: 1.43

Sample 3
Target: Histone acetyltransferase KAT6A, both winged helices, GST fusion (KAT6A, Homo sapiens, UniProt Q92794, residues 1-181)
Technique: protein binding microarray
Form: double-stranded DNA, one strand shown
Sample: in vitro
Tested at: not given
Notes: 8-mer, flanks averaged, mean of 2 arrays, mostly near background
Relative to: not given
Reading: higher = stronger binding
Quantity: E-score
Target sequence (chain): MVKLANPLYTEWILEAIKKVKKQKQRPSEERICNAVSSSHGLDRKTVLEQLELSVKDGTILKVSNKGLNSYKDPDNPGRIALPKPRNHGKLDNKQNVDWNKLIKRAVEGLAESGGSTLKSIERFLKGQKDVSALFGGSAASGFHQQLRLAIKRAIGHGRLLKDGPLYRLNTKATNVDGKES
GAGATACA: 0.0442
CTTGTTAA: -0.0697
GTATCGCA: 0.0786
ACTTGACG: 0.0249
GTGGAGCA: -0.0982

Further values, each from its own experiment
PhoQ, residues 284 288 289 292 302 303 ASVMEA — fold induction (PhoP, residues 12 14 15 18 19 NQGLL (Escherichia coli, UniProt P23836); Sort-seq, refers to: YFP reporter; E. coli; PhoQ-PhoP variant library, together with: 10 µM Mg2+; relative to: high Mg2+ state, higher = stronger signaling): 4.21
